Measured values from different studies.
A part holds a random share of what one study measured.
UniProt Q9BX84, sequence (whole entry, looked up): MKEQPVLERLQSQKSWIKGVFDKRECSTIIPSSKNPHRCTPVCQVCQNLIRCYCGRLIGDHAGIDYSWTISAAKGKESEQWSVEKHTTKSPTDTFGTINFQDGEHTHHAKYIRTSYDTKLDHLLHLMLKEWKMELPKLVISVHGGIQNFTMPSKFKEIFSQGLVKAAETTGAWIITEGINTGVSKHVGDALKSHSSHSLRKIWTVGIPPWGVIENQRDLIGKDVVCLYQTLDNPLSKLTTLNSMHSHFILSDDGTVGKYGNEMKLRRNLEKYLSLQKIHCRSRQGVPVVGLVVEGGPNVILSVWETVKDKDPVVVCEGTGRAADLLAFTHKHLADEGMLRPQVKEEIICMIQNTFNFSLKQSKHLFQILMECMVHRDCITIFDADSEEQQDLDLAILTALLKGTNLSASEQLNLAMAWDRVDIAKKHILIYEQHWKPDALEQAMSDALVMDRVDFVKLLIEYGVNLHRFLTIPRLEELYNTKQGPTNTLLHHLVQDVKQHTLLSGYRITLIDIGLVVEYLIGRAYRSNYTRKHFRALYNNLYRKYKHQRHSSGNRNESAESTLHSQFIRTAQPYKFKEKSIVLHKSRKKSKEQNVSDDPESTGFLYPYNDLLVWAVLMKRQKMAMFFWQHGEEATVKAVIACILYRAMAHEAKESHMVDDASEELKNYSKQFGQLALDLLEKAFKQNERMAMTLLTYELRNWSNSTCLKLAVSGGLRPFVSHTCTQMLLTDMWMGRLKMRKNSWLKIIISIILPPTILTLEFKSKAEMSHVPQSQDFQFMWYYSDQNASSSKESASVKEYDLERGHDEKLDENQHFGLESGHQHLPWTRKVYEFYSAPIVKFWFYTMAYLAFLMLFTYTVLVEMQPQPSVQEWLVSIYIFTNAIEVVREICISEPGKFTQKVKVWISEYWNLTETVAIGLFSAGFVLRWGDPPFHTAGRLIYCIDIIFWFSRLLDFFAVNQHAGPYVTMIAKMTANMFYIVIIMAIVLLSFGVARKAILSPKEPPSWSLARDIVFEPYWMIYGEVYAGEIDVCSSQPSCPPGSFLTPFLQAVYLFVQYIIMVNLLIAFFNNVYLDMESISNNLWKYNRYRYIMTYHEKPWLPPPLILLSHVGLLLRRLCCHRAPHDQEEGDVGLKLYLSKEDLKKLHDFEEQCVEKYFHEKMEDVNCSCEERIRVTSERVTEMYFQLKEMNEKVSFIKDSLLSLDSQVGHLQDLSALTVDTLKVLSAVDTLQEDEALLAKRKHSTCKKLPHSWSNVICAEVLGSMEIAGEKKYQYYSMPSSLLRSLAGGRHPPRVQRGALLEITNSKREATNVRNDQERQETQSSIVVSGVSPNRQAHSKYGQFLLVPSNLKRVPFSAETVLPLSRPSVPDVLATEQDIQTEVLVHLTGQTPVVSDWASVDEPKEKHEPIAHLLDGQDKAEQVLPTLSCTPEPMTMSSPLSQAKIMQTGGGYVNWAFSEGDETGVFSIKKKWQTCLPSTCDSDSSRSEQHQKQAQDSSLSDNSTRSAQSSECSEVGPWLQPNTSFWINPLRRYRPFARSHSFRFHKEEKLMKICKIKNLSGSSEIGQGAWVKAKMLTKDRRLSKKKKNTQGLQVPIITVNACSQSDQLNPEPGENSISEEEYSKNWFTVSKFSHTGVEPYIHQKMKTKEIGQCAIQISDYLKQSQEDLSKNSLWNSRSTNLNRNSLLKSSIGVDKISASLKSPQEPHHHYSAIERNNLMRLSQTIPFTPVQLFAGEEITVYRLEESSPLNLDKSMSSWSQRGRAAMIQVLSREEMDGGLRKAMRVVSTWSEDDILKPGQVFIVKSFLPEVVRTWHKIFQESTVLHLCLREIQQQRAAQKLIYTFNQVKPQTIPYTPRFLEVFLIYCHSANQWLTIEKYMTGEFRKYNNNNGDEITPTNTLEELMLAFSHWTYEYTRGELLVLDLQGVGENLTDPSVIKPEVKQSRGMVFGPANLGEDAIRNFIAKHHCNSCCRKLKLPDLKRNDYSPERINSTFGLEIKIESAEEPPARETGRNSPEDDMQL
UniProt Q9P286, sequence (whole entry, looked up): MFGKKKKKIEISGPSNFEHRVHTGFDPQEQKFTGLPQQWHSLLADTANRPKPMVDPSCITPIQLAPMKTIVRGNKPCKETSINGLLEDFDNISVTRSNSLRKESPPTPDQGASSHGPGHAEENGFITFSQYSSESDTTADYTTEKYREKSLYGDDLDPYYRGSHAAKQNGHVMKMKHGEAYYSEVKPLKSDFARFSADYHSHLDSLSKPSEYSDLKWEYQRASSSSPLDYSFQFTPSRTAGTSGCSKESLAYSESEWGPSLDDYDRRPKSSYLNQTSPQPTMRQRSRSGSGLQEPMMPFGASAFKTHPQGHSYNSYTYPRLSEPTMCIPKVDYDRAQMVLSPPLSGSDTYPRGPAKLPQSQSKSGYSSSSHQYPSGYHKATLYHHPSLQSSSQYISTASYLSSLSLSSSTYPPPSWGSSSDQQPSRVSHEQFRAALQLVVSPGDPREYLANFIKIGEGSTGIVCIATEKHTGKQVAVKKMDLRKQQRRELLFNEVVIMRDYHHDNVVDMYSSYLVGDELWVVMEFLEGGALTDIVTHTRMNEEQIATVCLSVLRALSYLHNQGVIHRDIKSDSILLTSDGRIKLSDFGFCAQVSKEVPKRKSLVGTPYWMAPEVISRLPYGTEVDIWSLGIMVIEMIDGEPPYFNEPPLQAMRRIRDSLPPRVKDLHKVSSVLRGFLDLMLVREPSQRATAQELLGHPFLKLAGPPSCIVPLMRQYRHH
UniProt P07948, sequence (whole entry, looked up): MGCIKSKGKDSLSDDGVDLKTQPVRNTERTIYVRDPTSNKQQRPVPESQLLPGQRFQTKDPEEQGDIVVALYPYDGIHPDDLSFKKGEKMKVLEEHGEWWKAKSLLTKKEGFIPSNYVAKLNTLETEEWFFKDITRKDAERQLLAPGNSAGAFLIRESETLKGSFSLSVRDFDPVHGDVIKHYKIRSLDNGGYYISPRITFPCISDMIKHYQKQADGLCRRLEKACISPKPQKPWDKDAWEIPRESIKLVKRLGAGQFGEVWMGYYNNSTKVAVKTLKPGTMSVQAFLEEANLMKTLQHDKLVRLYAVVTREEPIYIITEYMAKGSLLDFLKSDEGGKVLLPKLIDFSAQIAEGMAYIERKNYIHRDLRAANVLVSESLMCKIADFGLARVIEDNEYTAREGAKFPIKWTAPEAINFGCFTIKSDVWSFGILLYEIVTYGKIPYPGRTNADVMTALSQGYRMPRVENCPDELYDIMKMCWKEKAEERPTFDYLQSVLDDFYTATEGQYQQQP
UniProt Q9BWU1, sequence (whole entry, looked up): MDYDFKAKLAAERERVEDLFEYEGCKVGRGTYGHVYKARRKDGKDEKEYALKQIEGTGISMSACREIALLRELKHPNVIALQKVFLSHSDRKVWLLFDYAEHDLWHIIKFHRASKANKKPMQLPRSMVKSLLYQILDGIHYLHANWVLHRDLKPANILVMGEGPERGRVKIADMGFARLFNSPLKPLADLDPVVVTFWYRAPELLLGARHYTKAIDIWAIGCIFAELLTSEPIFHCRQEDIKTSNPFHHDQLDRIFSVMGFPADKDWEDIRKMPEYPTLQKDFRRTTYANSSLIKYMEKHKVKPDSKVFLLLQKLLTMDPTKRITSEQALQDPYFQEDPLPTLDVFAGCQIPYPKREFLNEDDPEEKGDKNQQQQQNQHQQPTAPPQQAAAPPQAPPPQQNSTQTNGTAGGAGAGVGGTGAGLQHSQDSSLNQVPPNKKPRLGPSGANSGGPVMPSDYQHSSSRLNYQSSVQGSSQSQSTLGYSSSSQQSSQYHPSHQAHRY

Study 1 — observed: enzyme activity; mode: inhibitor; concentration: 0.5 µM; relative to: control
Target: Aurora kinase B (AURKB, Homo sapiens, UniProt Q96GD4)
UniProt Q96GD4, sequence (whole entry, looked up): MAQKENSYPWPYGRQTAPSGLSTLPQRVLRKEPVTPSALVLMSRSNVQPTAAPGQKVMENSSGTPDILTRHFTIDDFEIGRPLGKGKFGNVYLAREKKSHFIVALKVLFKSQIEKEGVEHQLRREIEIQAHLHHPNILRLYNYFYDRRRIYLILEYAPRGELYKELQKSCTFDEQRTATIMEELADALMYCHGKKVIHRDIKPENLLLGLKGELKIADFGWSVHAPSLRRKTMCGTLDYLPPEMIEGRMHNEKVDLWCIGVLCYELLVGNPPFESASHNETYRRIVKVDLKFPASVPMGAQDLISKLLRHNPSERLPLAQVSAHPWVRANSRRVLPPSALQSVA
SMILES	remaining activity [%]
Nc1[nH]nc2nc3ccccc3nc12	101
NCCNc1ncc(C(N)=O)c(Nc2cccc(C(F)(F)F)c2)n1	93.4
O=C1NC(=O)C(c2cn(CCCO)c3ncccc23)=C1c1cnccn1	101
Oc1ccc(-c2nc(-c3ccncc3)c(-c3ccc(F)cc3)[nH]2)cc1	104
O=C(Nc1cccc(Nc2cc(Nc3cccc(C(F)(F)F)c3)ncn2)c1)C1CC1	98.9
CC(C)[C@H](CO)Nc1nc(Nc2cc(N)cc(Cl)c2)c2ncn(C(C)C)c2n1	87.8
Nc1ccc2ncnc(NCCc3ccc(Oc4ccccc4)cc3)c2c1	99.1
COc1ccc(OC)c2c(=S)c3ccccc3[nH]c12	89.6
Cn1c2ccccc2c2c3c(c4c5ccccc5n(CCC#N)c4c21)CNC3=O	33.1
COc1ccc(CNC(=O)Nc2ncc([N+](=O)[O-])s2)cc1	97.1
COc1cc2nccc(Oc3ccc(NC(=S)NC(=O)c4ccccc4C)cc3)c2cc1OC	4.31
Cc1cccc(-c2[nH]c(C(C)(C)C)nc2-c2ccc3c(c2)OCO3)n1	96.5
OCC(O)CCON=C1C(c2c(O)[nH]c3ccccc23)=Nc2ccccc21 (stereo not shown)	27.4
Nc1ncnc2n[nH]c(Nc3ccc(F)cc3)c12	96.9

Study 2 — observed: kinase activity; mode: inhibitor; concentration: 1 µM
Structure (SMILES): CC(C)S(=O)(=O)c1ccc2nccc(Nc3ccc4sc(C5CCCC5)nc4c3)c2c1.Cl
target	remaining activity
Serine/threonine-protein kinase PAK 5 (PAK5, Homo sapiens, UniProt Q9P286)	107%
Tyrosine-protein kinase Fer (FER, Homo sapiens, UniProt P16591)	91%
Serine/threonine-protein kinase Nek4 (NEK4, Homo sapiens, UniProt P51957)	97%
Tyrosine-protein kinase Lyn (LYN, Homo sapiens, UniProt P07948)	101%

Study 3 — concentration: 1 µM
SMILES: CS(=O)(=O)c1cc(C2(NC(=O)c3cncc4c3cnn4-c3ccc(F)cc3)CC2)ccn1
target	observed	technique	remaining binding
Serine/threonine-protein kinase D3 (PRKD3, Homo sapiens, UniProt O94806)	cell-free assay	competition with immobilised ligand	97%
Cyclin-dependent kinase 19 (CDK19, Homo sapiens, UniProt Q9BWU1)		competition binding	91%
Calcium/calmodulin-dependent protein kinase kinase 1 (CAMKK1, Homo sapiens, UniProt Q8N5S9)	cell-free assay	competition with immobilised ligand	76%
Transient receptor potential cation channel subfamily M member 6 (TRPM6, Homo sapiens, UniProt Q9BX84)	cell-free assay	competition with immobilised ligand	91%

Study 4 — species: human; sample: microsomes or S9; concentration: 2 µM; time: 0.5 h
Structure (SMILES)	remaining compound [%]
COCCCn1c(C(=O)Nc2cc(Cl)ccc2OC)cc2c(=O)n3ccccc3nc21	28.5
Cc1ccc(S(=O)(=O)N2c3c(c4ccc(Br)cc4n3C)CC=CC2c2ccccc2)cc1 (stereo not shown)	75.1
CC1CCC(NS(=O)(=O)CC(=O)N(C)Cc2ccccn2)CC1 (stereo not shown)	53.9
CON(C)C(=O)c1cc(C(C)C)nc2c1c(C)nn2C(C)(C)C	9.54
CCN(CCCN(C)C)S(=O)(=O)c1ccc(S(=O)(=O)CC)cc1	90.9
Cc1nn(-c2ccc(F)c(Cl)c2)c(=O)cc1-c1cccc(N2CCCC2=O)c1	62.8

Study 5 — observed: cell-free assay; concentration: 1 µM
Structure (SMILES): C[C@H]1CC[C@H](n2c3cnccc3c3cnc(Nc4ccc5c(n4)CCN(C(=O)CO)C5)nc32)CC1
target	remaining signal [%]
Serine/threonine-protein kinase N2 (PKN2, Homo sapiens, UniProt Q16513)	40
Receptor-type tyrosine-protein kinase FLT3 (FLT3, Homo sapiens, UniProt P36888, R834Q)	14
Transient receptor potential cation channel subfamily M member 6 (TRPM6, Homo sapiens, UniProt Q9BX84)	100

Some of these lines once more (study 1):
SMILES	remaining activity [%]
Cn1c2ccccc2c2c3c(c4c5ccccc5n(CCC#N)c4c21)CNC3=O	33.1
OCC(O)CCON=C1C(c2c(O)[nH]c3ccccc23)=Nc2ccccc21 (stereo not shown)	27.4
O=C1NC(=O)C(c2cn(CCCO)c3ncccc23)=C1c1cnccn1	101
